Measurements collected from several papers.
Every numbered part comes from another study and shows a few of its results, in no order.

Study 1
Target: Ras GTPase-activating protein-binding protein 1, full length (G3BP1, Homo sapiens, UniProt Q13283)
Sequence of UniProt Q13283 (whole entry, looked up): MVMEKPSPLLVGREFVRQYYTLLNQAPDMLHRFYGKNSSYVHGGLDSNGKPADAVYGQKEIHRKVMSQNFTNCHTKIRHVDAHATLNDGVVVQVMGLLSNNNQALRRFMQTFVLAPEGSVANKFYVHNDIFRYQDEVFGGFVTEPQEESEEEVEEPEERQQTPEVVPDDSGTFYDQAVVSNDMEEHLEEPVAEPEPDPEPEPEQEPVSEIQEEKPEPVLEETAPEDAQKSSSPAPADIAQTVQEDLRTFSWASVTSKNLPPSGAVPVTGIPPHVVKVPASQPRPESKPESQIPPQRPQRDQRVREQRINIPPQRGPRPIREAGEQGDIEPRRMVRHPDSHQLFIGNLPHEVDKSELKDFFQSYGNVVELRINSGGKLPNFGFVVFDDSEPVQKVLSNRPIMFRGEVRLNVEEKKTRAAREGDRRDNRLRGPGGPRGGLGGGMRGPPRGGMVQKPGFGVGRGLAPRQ
Method: RNA Bind-n-Seq
Form: RNA
Matrix: in vitro
Concentration: 200 nM
Setting: whole 134-nt RNA, ends assumed
Added: 150 mM KCl
Relative to: input library
Reading: higher = stronger binding
Shared flanks, not repeated: GGGAGUUCUACAGUCCGACGAUC … UGGAAUUCUCGGGUGUCAAGG
`CCUGUGCUACACAUCGUAUGUACCGAAUCGGGGUUUGGGGUUUUUGGGGUUUUUUUGGGGAAAGUAUUAUGUUACGCCGUUCGGAUCUGC` gave a log2 enrichment of 0.2.
The log2 enrichment of `CAAGUCCUGUGCUACACAUCGUAUGUACCGAAUCGGGUUUGGGUUUUUGGGAGGGAAAGUAUUAUGUUACGCCGUUCGGAUCUGCACUUC` is reported as 0.668.
The log2 enrichment of `ACCAUGCAGGUGGGCAUCUUUCGGAAGUGGGGCAAGGGGGGGAUAGGGAGGGGGGUAACACUUUGGGAACAGGUGGUCCCAGGUCGUUUC` is reported as 1.25.
The log2 enrichment of `UCCUCAAGUCCUGUGCUACACAUCGUAUGUACCGAAUCGGAAAGGUGGUGGAAAGUAUUAUGUUACGCCGUUCGGAUCUGCACUUCCAGC` is reported as -0.612.
With `CUCAAGUCCUGUGCUACACAUCGUAUGUACCGAAUCGGGCCGGGCCGGGCCGGGAAAGUAUUAUGUUACGCCGUUCGGAUCUGCACUUCC` the log2 enrichment was 0.187.
`UCAAGUCCUGUGCUACACAUCGUAUGUACCGAAUCGGGAAAGGGAAAGGGAGGGAAAGUAUUAUGUUACGCCGUUCGGAUCUGCACUUCC` gave a log2 enrichment of 0.999.
For `AGUCCUGUGCUACACAUCGUAUGUACCGAAUCGGGGAGGGGAAAAAGGGGUUUGGGGAAAGUAUUAUGUUACGCCGUUCGGAUCUGCACU`, the log2 enrichment was 0.317.
For `CAAGUCCUGUGCUACACAUCGUAUGUACCGAAUCGGCCCGGGGCCCGGGCCCGGGGAAAGUAUUAUGUUACGCCGUUCGGAUCUGCACUU`, the log2 enrichment was -0.698.

Study 2
Target: Sal-like protein 4, full length isoform B (SALL4, Homo sapiens, UniProt Q9UJQ4-2, residues 1-616)
Method: universal PBM
Form: double-stranded DNA, one strand shown
Matrix: in vitro
Concentration: not given
Setting: 8-mer, flanks averaged, mean of replicates
Reading: higher = stronger binding
Residues (chain): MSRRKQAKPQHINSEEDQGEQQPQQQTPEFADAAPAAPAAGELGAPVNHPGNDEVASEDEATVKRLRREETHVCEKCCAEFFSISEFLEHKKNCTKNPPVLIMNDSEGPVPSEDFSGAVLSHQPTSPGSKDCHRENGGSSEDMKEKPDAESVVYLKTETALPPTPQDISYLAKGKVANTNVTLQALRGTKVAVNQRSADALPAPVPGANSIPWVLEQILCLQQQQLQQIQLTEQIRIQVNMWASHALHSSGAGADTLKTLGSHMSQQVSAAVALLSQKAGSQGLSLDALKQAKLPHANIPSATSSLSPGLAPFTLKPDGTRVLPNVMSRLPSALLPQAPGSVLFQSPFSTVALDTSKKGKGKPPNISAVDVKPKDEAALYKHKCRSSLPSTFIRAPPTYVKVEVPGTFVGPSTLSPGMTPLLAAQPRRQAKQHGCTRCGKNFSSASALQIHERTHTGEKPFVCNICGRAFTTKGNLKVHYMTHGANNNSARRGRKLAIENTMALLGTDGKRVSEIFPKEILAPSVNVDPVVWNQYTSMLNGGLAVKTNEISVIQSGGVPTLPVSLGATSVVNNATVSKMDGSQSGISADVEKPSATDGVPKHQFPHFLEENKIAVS
With `ATGGCGTC` the E-score was -0.168.
The E-score of `ACGCTAAA` is reported as 0.18.
`ATAGGGTC` gave an E-score of -0.0388.
For `CGAATGTA`, the E-score was 0.149.
With `ATCGAGAA` the E-score was 0.0545.
`CGTCACCA` gave an E-score of -0.0276.
The E-score of `CGTGTAAA` is reported as 0.0508.
For `TCGCGTCA`, the E-score was -0.0809.

Study 3
Target: Protein max, full length (MAX, Homo sapiens, UniProt P61244-2, residues 1-151)
Method: protein-binding microarray
Form: double-stranded DNA, one strand shown
Matrix: in vitro
Concentration: not given
Setting: k-mer, scored over probes, only values ≥0.25
Reading: higher = stronger binding
`CACCACAC` gave an E-score of 0.289.
For `ATGTGCGC`, the E-score was 0.397.
`AGGTGACC` has an E-score of 0.276.
The E-score of `ACGTGCGC` is reported as 0.466.
For `GAACGCAC`, the E-score was 0.283.
The E-score of `TGCTCACA` is reported as 0.287.
`ACATCATG` gave an E-score of 0.254.
`ATGTGTTG` gave an E-score of 0.284.

Other studies, line by line
`FVRSSPANF`: “z-score of log IC50” 0.38 (HLA class I histocompatibility antigen, A alpha chain, allele A*80:01 (Homo sapiens, UniProt P04439); peptide-MHC binding; peptide; direction not given).

A few entries again (study 1):
The log2 enrichment of `UCCUCAAGUCCUGUGCUACACAUCGUAUGUACCGAAUCGGAAAGGUGGUGGAAAGUAUUAUGUUACGCCGUUCGGAUCUGCACUUCCAGC` is reported as -0.612.
For `CAAGUCCUGUGCUACACAUCGUAUGUACCGAAUCGGCCCGGGGCCCGGGCCCGGGGAAAGUAUUAUGUUACGCCGUUCGGAUCUGCACUU`, the log2 enrichment was -0.698.
With `CUCAAGUCCUGUGCUACACAUCGUAUGUACCGAAUCGGGCCGGGCCGGGCCGGGAAAGUAUUAUGUUACGCCGUUCGGAUCUGCACUUCC` the log2 enrichment was 0.187.
The log2 enrichment of `CAAGUCCUGUGCUACACAUCGUAUGUACCGAAUCGGGUUUGGGUUUUUGGGAGGGAAAGUAUUAUGUUACGCCGUUCGGAUCUGCACUUC` is reported as 0.668.
